Published values collected from several papers.
Protocols differ between the studies behind these lines. “And” joins repeats or separate records; there may be more than shown.
TYK2: Non-receptor tyrosine-protein kinase TYK2 (TYK2, Homo sapiens, UniProt P29597)

Structure (SMILES) | target | assay | system | conditions | how to read | endpoint | value
C=CC(=O)N1Cc2nc(-c3cc(-c4cc(Cl)cnc4Cl)c(F)cc3F)n(-c3ccncn3)c2C1 | TYK2 | cell-free assay, inhibitor |  | 1 µM |  | inhibition | -1.7%
C[C@H]1CN(C(=O)c2cn(-c3ccnc(N)n3)c3cc(C#CC4(O)CCCCC4)ccc23)CCN1 | TYK2 | enzyme activity, inhibitor, FRET |  | 1 µM |  | inhibition | 1%
O=C(Cc1ccc(OCc2ccccc2)cc1)NC1(C(=O)O)CCN(C(=O)c2ccc(-c3cccc(Cl)c3)cc2)CC1 | TYK2 | enzyme activity, inhibitor |  | 10 µM |  | activity vs control | 109%
CNC(=O)C[C@H](Cc1ccc(C#N)cc1)NC(=O)c1cc(-c2ccc(CN[C@H](C)c3ccc(C)cc3)o2)ccc1Cl | TYK2 | enzyme activity, inhibitor |  | 1 µM |  | activity vs control | 109%
Cc1ccc(C(=O)Nc2ccc(CN3CCN(C)CC3)c(C(F)(F)F)c2)cc1C#Cc1cnc2cccnn12 | TYK2 | target engagement, NanoBRET | human cells |  |  | upper asymptote | 53.2
NC(=O)C[C@H]1CCc2sc3ncnc(O[C@H]4CC[C@H](N5CCOCC5)CC4)c3c21 | TYK2 | enzyme activity, inhibitor |  | 10 µM |  | inhibition | -5%
Cc1cnc2nc1Nc1cccc(c1)COC/C=C/COCc1cc(ccc1OCCN1CCOCC1)N2 | Non-receptor tyrosine-protein kinase TYK2, JH2 (TYK2, Homo sapiens, UniProt P29597) | cell-free assay |  | 0.1 µM |  | remaining signal | 19%
Cc1cccc(O[C@H]2CCC[C@@H](C(C)CNCc3ccncc3)C2)c1 (relative stereo) | TYK2 | kinase activity, kinome panel screening |  | 10 µM |  | inhibition | -1%
NC(=O)[C@@H](O)C[C@H]1CCc2sc3ncnc(O[C@H]4CC[C@H](N5CCOCC5)CC4)c3c21 | TYK2 | enzyme activity, inhibitor |  | 10 µM |  | inhibition | -5%
CS(=O)(=O)Nc1cccc(-c2csc3cnc(Nc4ccc(N5CCN(CCCCCOc6cccc7c6C(=O)N(C6CCC(=O)NC6=O)C7=O)CC5)cc4)nc23)c1 (centres unmarked) | Non-receptor tyrosine-protein kinase TYK2, JH2 pseudokinase domain (TYK2, Homo sapiens, UniProt P29597) | probe labelling, inhibitor, KiNativ chemoproteomics | MOLT-4 | 1 µM |  | inhibition | -2.09%
COCC12C(=O)NC3C4(C(OC)CC1O)C1CC5(O)C(OC)C(O)C(OC(C)=O)(C1C5OC(=O)c1ccccc1)C3(O)C(OC)C24 (centres unmarked) | TYK2 | kinase activity, inhibitor, ProQinase kinase profiling |  | 25 µM | reference: control | remaining activity | 101% and 102%
O=C(Nc1ccc(Oc2ncnc3[nH]cc(-c4ccccc4)c23)c(F)c1)c1c2n(n(-c3cc(F)ccc3F)c1=O)CCCC2 | TYK2 | enzyme activity, inhibitor |  | 0.5 µM |  | inhibition | 8%
CN1CCN(Cc2ccc(-c3ccc(CO[C@H]4CCC[C@@H]4NC(=O)c4cc(-c5cnn(C)c5)cnc4N)cc3)cc2)CC1 | TYK2 | enzyme activity, inhibitor |  | 0.1 µM |  | inhibition | 3%
C=CC(=O)Nc1cccc(-c2cnc3[nH]cc(C(=O)NC(C)(C)C)c3n2)c1 | TYK2 | kinase activity |  | 0.1 µM |  | inhibition | 39% and 40%
CN1CC[C@@H](COc2cnc(C#N)cc2-c2ccn3nc(NC(=O)C4CC4)cc3c2)C1 | TYK2 | enzyme activity, inhibitor |  | 1 µM |  | inhibition | 2%
CCn1cc(C(=O)O)c(=O)c2c(N)c(F)c(NC3CCCCC3)cc21 | Non-receptor tyrosine-protein kinase TYK2, JH1 domain (TYK2, Homo sapiens, UniProt P29597) | kinase activity |  | 0.1 µM, added: ATP at Km |  | inhibition | -9.6%
N[C@H]1CC[C@H](Nc2nccc(-c3cccnc3Oc3ccc(NC(=O)NC4CC4)c4ccccc34)n2)CC1 | TYK2 | kinobead competition pulldown | HEK293/HCT116 lysate mixture | 10 µM, 1 h, 4 °C | lower = stronger competition | log2 LFQ intensity | 18.2 and 20.7 and 20 and 20.2
